Published values of several laboratories.
Compare with care: the assays were run in different laboratories. Values joined by “and” are separate records of one study, mostly repeats; a detail may differ. ± gives the spread as reported.
B1: enzyme (Nicotiana tabacum, UniProt A0A1S3XCJ5); chain MLPQLSNSSGSGYSWMQDNSASCGNFSRNGRKQGPLNSVAPTERAQISSVDDLYDFICSGPLINKIGLTPEKVAESIDKWIEYGFRLCRLFQLNQLALNEPQKIRLYHYYIPVFLWCEQEISQHSSKFKDNEEIPPLVIGFSAPQGCGKTTLVFALEYLFKITGRKAATLSIDDFYLTAEEQAKLRENNPGNLLLEFRGNAGSHDLSLSVETLAELSKVTKEGVKMKLPRYDKSAYNGRGDRADPSTWPEVEGPLTVILFEGWMLGFKPLPPEAVKAVDPQLETVNKNLEAYYDAWYKYVKSWIIIKIHDPSYVYQWRLQAEIAMRADGNPGMSDEEVRDFVSRYLPAYKAYLPTLYSEGPTGADPEHVLLVEIDEGRNPILGS
B2: Streptomyces antibioticus OleD glycosyltransferase; sequence looked up; chain MTTQTTPAHIAMFSIAAHGHVNPSLEVIRELVARGHRVTYAIPPVFADKVAATGPRPVLYHSTLPGPDADPEAWGSTLLDNRRTFLNDAIQALPQLADAYADDIPDLVLHDITSYPARVLARRWGVPAVSLSPNLVAWKGYEEEVAEPMWREPRQTERGRAYYARFEAWLKENGITEHPDTFASHPPRSLVLIPKALQPHADRVDEDVYTFVGACQGDRAEEGGWQRPAGAEKVVLVSLGSAFTKQPAFYRECVRAFGNLPGWHLVLQIGRKVTPAELGELPDNVEVHDWVPQLAILRQADLFVTHAGAGGSQEGLATATPMIAVPQAVDQFGNADMLQGLGVARKLATEEATADLLRETALALVDDPEVARRLRRIQAEMAQEGGTRRAADLIEAELPARHERQEPVGDRPNVGDRPAGVRSDRQRSAL
B3: enzyme (Enterococcus faecalis, UniProt Q836M4); chain MEIHFEKVTSDNRKAVENLQVFAEQQAFIESMAENLKESDQFPEWESAGIYDGNQLIGYAMYGRWQDGRVWLDRFLIDQRFQGQGYGKAACRLLMLKLIEKYQTNKLYLSVYDTNSSAIRLYQQLGFVFNGELDTNGERVMEWTHQNK
B4: enzyme (Bos taurus, UniProt C7EXK4); chain MSRATSVGDQLDVPARTIYLNQPHLNKFCDNQISTAKYSVVTFLPRFLYEQIRRAANAFFLFIALLQQIPDVSPTGRYTTLVPLIIILTIAGIKEIVEDFKRHKADNAVNKKKTIVLRNGMWQTIVWKEVAVGDIVKVVNGQYLPADVVLLSSSEPQAMCYVETANLDGETNLKIRQGLSHTADMQTREVLMKLSGTIECEGPNRHLYDFTGNLNLDGKSPVALGPDQILLRGTQLRNTQWGFGIVVYTGHDTKLMQNSTKAPLKRSNVEKVTNVQILVLFGILLVMALVSSVGALYWNGSQGGKNWYIKKMDATSDNFGYNLLTFIILYNNLIPISLLVTLEVVKYTQALFINWDTDMYYLGNDTPAMARTSNLNEELGQVKYLFSDKTGTLTCNIMNFKKCSIAGVTYGHFPELTREPSSDDFSRIPPPPSDSCDFDDPRLLKNIEDHHPTAPCIQEFLTLLAVCHTVVPERDGDSIVYQASSPDEAALVKGARKLGFVFTARTPYSVIIEAMGQEQTFGILNVLEFSSDRKRMSVIVRTPSGQLRLYCKGADNVIFERLSKDSKYMEETLCHLEYFATEGLRTLCVAYADLSERDYEEWLKVYQEASTILKDRAQRLEECYEIIEKNLLLLGATAIEDRLQAGVPETIATLLKAEIKIWVLTGDKQETAINIGYSCRLVSQNMALILLKEDSLDATRAAITQHCADLGSLLGKENDAALIIDGHTLKYALSFEVRRSFLDLALSCKAVICCRVSPLQKSEIVDVVKKRVKAITLAIGDGANDVGMIQTAHVGVGISGNEGMQATNNSDYAIAQFSYLEKLLLVHGAWSYNRVTKCILYCFYKNVVLYIIELWFAFVNGFSGQILFERWCIGLYNVIFTALPPFTLGIFERSCSQESMLRFPQLYKITQNAEGFNTKVFWGHCINALVHSLILFWFPMKALEHDTVLANGHATDYLFVGNIVYTYVVVTVCLKAGLETTAWTKFSHLAVWGSMLIWLVFFGIYSTIWPTIPIAPDMKGQATMVLSSAHFWLGLFLVPTACLIEDVAWRAAKHTCKKTLLEEVQELEMKSRVMGRAMLRDSNGKRMNERDRLLKRLSRKTPPTLFRGSSLQQSMPHGYAFSQEEHGAVTQEEIVRAYDTTKQKSRKK
Sequence of UniProt P30566 (whole entry, looked up): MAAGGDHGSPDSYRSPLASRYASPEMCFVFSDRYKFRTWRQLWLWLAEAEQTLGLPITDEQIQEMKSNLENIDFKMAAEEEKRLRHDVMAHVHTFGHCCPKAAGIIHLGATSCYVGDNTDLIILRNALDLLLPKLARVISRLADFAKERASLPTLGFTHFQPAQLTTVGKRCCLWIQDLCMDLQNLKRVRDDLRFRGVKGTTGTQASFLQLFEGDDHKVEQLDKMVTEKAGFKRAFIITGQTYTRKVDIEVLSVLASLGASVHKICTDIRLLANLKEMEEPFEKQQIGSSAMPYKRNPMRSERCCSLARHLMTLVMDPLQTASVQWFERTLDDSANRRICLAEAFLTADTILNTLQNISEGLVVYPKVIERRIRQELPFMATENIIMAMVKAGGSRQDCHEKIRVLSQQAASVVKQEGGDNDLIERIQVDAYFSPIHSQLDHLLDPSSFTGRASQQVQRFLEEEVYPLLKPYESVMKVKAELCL
Sequence of UniProt P64467 (whole entry, looked up): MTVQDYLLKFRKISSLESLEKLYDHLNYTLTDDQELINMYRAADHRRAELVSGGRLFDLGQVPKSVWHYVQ
Sequence of UniProt Q9GV41 (whole entry, looked up): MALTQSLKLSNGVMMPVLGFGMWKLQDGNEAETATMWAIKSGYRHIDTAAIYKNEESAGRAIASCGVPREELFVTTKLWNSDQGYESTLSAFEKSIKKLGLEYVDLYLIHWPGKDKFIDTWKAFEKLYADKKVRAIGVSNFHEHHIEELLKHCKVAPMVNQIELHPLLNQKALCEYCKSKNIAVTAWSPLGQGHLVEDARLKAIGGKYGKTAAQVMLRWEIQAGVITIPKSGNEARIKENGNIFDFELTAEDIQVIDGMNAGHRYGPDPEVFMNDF

B1 (enzyme)
Vmax (Nc1ncnc2c1ncn2[C@@H]1O[C@H](COP(=O)(O)OP(=O)(O)OP(=O)(O)O)[C@@H](O)[C@H]1O; steady-state kinetics; pH 7.8, 30 °C): 79 µmol/min/mg

B2
apparent kcat (glycosylation; Tris-HCl buffer; 4 h, pH 9.0, 35 °C, added: NOS substrate 2 mM, UDP-glucose 5 mM): 0.01 ± 0.01 s⁻¹

B3 (enzyme)
K0.5 (NCCCCNCCCN; steady-state kinetics; pH 8, 37 °C, added: AcCoA 1 mM): 424 µM

aspterric acid
hypocotyl length (Arabidopsis thaliana Col-0 seeds; 6.25 µg/mL, seed germination): 0.736 cm

glucagon
leg extraction (isotope dilution; human, non-diabetic; intravenous infusion, 0.12 ng/kg/min, 160 to 180 min): 24.1 ± 2.2%

HVLVMSATRR
alkaline phosphatase (peptide, C57BL/6J mice, male, serum; subcutaneous osmotic pump, 3 mg/kg/day peptide basis, 8 weeks): 94 U/L and 97 U/L and 56 U/L and 79 U/L

insulin human
fold change (measured: NIT2 mRNA; EcoHIV-infected mouse, brain; i.p., dose not given; reference: PBS): 1.14

Cj1438c (Campylobacter jejuni, UniProt Q0P8H6)
kcat/Km (N[C@@H](CO)COP(=O)(O)O; steady-state kinetics; pH 8, 25 °C, apparent): 51000 ± 5000 M⁻¹ s⁻¹

B4 (enzyme)
K0.5 (CCCCCCCC/C=C\CCCCCCCC(=O)OC[C@H](COP(=O)(O)OC[C@H](N)C(=O)O)OC(=O)CCCCCCC/C=C\CCCCCCCC; steady-state kinetics; pH 7.5, 37 °C, added: ATP 5 mM): 20.5 µM

ADSL (Homo sapiens, UniProt P30566)
K0.5 (Nc1c(C(=O)N[C@@H](CC(=O)O)C(=O)O)ncn1[C@@H]1O[C@H](COP(=O)(O)O)[C@@H](O)[C@H]1O; steady-state kinetics; pH 7.4, 25 °C): 1.8 µM

cnu (Escherichia coli, UniProt P64467)
pKa (fluorescence, measured: His45): 5.4

enzyme (Trypanosoma brucei, UniProt Q9GV41)
Vmax ([H][C@]12C[C@]([H])(OO1)[C@H](C/C=C\CCCC(=O)O)[C@H]2/C=C/[C@@H](O)CCCCC; steady-state kinetics; pH 7, 37 °C): 2 µmol/min/mg

Leu-enkephalin
storage stability time (LC-MS3; rat dialysate with 5% acetic acid; -80 °C): ~5 days

amyloid β-peptide (1–28)
remaining substrate (substrate, LC-MS; phosphate buffer; 10 µM, 8 h, pH 7.4, 25 °C, added: imprinted nanoparticle 1 equiv): 16.9 ± 2.4%
